Results collected from several papers.
A part holds a random share of what one study measured. Changes are numbered by the printed parent chain.

Block 1 — technique: RNA Bind-n-Seq; molecule type: RNA; matrix: in vitro; concentration: 365 nM; relative to: no-protein control; direction: higher = stronger binding
Target: RNA binding protein fox-1 homolog 2, RRM domain, GST-SBP tag (RBFOX2, Homo sapiens, UniProt O43251-10, residues 100-194)
Notes: natural RNA segment, single round, ends assumed
All sequences stand within: GGGAGUUCUACAGUCCGACGAUC … UGGAAUUCUCGGGUGCCAA
Target sequence (chain): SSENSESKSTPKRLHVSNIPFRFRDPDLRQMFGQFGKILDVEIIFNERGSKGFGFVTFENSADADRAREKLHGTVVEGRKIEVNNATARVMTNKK
Under “RBNS enrichment (R)”, `AGCUUUAAAAGUAAAAAUUCCAGAUUAUUACUGGUGGCUUUUUAAAAUAAAAACAACUUUAACACUUGAACAGCCUGGAUUUUGCCCCAUGUACAGUAAACCUGCGUUUC` is recorded as 0.634.
For `UACAUACUGUUCUAAUUUUGUAUUUUUUAAUUUUUGAAUUUGACAUUGAGUUUAAUUCAGCAACAACAAAAAAUACAUAUAAAACUAGAAAGGGACUUUUUUUCCUUUCU`, “RBNS enrichment (R)” read 0.519.
`ACUGCCCCCUCCCUCGGGUUGGGUGGCCCAGCCAGCUGGCCAGCCUCCACUCCCACUCUGCCAGACACCCUGACACCCACCCAGGCUUUGAAGAGCAUGGAGGGGGAGCC` — result for “RBNS enrichment (R)”: 0.775.
`GGCCUUUCAGCUCCUUGUGUGCCUGUUGUGUCUGGUAAUGAUGUAGUUCAGAGUGGGAUUUUUUUCUUUGAACCUUAAAGGUUUUAUUUUAGAACGAGGCACAGAUCGCA`: “RBNS enrichment (R)” 9.43.
`UCUUUCUCCAGGUGGGAUGUAGCACCCCGAAGUAGAGCUUUCUGCUCUGCUCCUGGAAAAGGCUAGGGAGCUGGGGCUGGGGCUCCCCUCCCAUGACCAGGCAGUGGUCA`: “RBNS enrichment (R)” 0.257.
`CAUUUCUCUUCCCUGUGGCACUUGACAUUUUAAUUGUCUUAAAGUUUUUGAAGUACAUCUUCUGGCCCCUUGAGUACUGCCAGAGGCAAAAGAUGUUUGUUUCUUAUUCA`: “RBNS enrichment (R)” 0.526.
For `GUCUCUCUCCCUGUCAUCAAUCAGGGUAGUAACUUGACUUAAGAAUACCACUUUUUAGAAAAAUUACGAUAGAGAUGGGAUCUCACUAGGUUGCCCAGGCUGGUGUCGAA`, “RBNS enrichment (R)” read 0.374.
Under “RBNS enrichment (R)”, `GGCCUGGACCCCACACGUUCAUAGUCUGUCCAGACACUGGGUGGCGGUCCUAAUGCACAGUGACCAAUAUCCACAUAACCUCAUUUGCCUUCCAGAUGUUCAGAUAGUCA` is recorded as 0.812.
For `UUGACAACUGUUUACCAUUGUGUUUAGGUUAUAUUCUAUAAAUACUCUUUAUAUGCAUAUAUAUGGCUAUAAAUAUAAAUUUUGUAUUACUGGUACCAAAAACACUUUUU`, “RBNS enrichment (R)” read 0.38.
For `UUUUUUCAGCUAAUUUGUUAUUUGACCAGAAGUUGUCUGGGGAGACUGAGUUCUUUGAGUUGCAUAUAAAUGGGGGUAUAUUAUUUGCCAAAGGUAAAAUUGAGUUUAUU`, “RBNS enrichment (R)” read 1.91.
`AGCAAGACAUAAACAGAUUAUAAACAUCAGAGCCAUUUGCUUCUCAGUUUACAUUUCUGAUACAUGCAGAUAGCAGAUGUCUUUAAAUGAAAUACAUGUAUAUUGUGUAU`: “RBNS enrichment (R)” 0.373.
For `GCGCGCUCUCUCUCUUUCUCUCUCUUUUCCUCUCUCUCCCUCUUUCUAGCCUGGGGCUUGAAUUUGCAUGUCUAAUUCAUUUACUCACCAUAUUUGAAUUGGCCUGAACA`, “RBNS enrichment (R)” read 3.47.

Block 2 — target: CCNB3, cyclin fold, Cln2 fusion (human); technique: yeast growth competition, sequencing; matrix: yeast; notes: weak parent motif; relative to: not given; direction: higher = stronger binding
Starting sequence: SLBP docking peptide (human); ARYKRKLLINDFG; partner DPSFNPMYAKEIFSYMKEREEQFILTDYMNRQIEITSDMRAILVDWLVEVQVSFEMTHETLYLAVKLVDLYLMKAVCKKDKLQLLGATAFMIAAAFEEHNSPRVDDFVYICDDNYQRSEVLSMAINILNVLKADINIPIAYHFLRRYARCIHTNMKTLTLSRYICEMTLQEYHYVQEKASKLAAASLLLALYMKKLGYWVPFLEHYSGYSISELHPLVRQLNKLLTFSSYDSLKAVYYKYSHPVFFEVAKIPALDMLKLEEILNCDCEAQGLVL
`Y3N`: “normalised enrichment score” 0.304.
Under “normalised enrichment score”, `A1W` is recorded as 0.126.
For `D11N`, “normalised enrichment score” read 0.132.
`L8K`: “normalised enrichment score” -0.812.
Under “normalised enrichment score”, `D11K` is recorded as 0.155.
`Y3E` — result for “normalised enrichment score”: 0.528.
For `I9Y`, “normalised enrichment score” read 0.152.
For `Y3Q`, “normalised enrichment score” read 0.146.
`G13A` — result for “normalised enrichment score”: -0.125.
`F12Y` — result for “normalised enrichment score”: 0.375.
`Y3K` — result for “normalised enrichment score”: -0.305.
For `Y3L`, “normalised enrichment score” read 0.47.
`K4H` — result for “normalised enrichment score”: 0.348.
For `R5Q`, “normalised enrichment score” read -0.225.
For `N10Q`, “normalised enrichment score” read 0.31.
`N10V` — result for “normalised enrichment score”: -0.0557.
`R2F`: “normalised enrichment score” -0.305.

Block 3 — technique: aptamer microarray, sandwich; molecule type: DNA with 2'F-ANA; matrix: in vitro; concentration: 200 nM; together with: Cy3 exosite-II aptamer, 400 nM; direction: higher = stronger binding; strand: GGTTGGTGTGGTTGG
Target: Prothrombin, mature alpha-thrombin (F2, Homo sapiens, UniProt P00734)
Notes: whole 15-mer aptamer, many near background
Under “mean fluorescence intensity”, `2'F-ANA at 3 4 5 12 13 15` is recorded as 135 a.u.
`2'F-ANA at 1 3 6 7 10 11 12 14` — result for “mean fluorescence intensity”: 76.5 a.u.
`2'F-ANA at 2 4 5 7 8 9 10 11 12 15` — result for “mean fluorescence intensity”: 49.3 a.u.
`2'F-ANA at 1 3 4 7 9 10 12 14` — result for “mean fluorescence intensity”: 51.8 a.u.
Under “mean fluorescence intensity”, `2'F-ANA at 2 5 6 8 11 12 14` is recorded as 50.9 a.u.
For `2'F-ANA at 1 4 9 12 13`, “mean fluorescence intensity” read 158 a.u.
`2'F-ANA at 1 2 7 9 10 13 14` — result for “mean fluorescence intensity”: 71.6 a.u.
Under “mean fluorescence intensity”, `2'F-ANA at 1 3 4 6 7 8 14` is recorded as 77.7 a.u.
Under “mean fluorescence intensity”, `2'F-ANA at 2 5 6 7 8 9 10 13` is recorded as 48.2 a.u.
For `2'F-ANA at 2 3 4 5 7 8 10 12 14`, “mean fluorescence intensity” read 111 a.u.
Under “mean fluorescence intensity”, `2'F-ANA at 8 10 11 13 14 15` is recorded as 87 a.u.
`2'F-ANA at 2 3 5 8 9 11 13 15` — result for “mean fluorescence intensity”: 78.5 a.u.
Under “mean fluorescence intensity”, `2'F-ANA at 2 4 8 13` is recorded as 287 a.u.
Under “mean fluorescence intensity”, `2'F-ANA at 3 4 6 10 11 15` is recorded as 221 a.u.
Under “mean fluorescence intensity”, `2'F-ANA at 1 5 6 7 11 12 14` is recorded as 63.8 a.u.
Under “mean fluorescence intensity”, `2'F-ANA at 1 6 8 9 10 11 12 13` is recorded as 62.7 a.u.
For `2'F-ANA at 1 4 8 10 12 14 15`, “mean fluorescence intensity” read 50.1 a.u.
For `2'F-ANA at 3 4 5 6 8 9 12 13`, “mean fluorescence intensity” read 155 a.u.
Under “mean fluorescence intensity”, `2'F-ANA at 1 3 5 6 7 9 10 11 14 15` is recorded as 70.7 a.u.
`2'F-ANA at 2 3 4 8 9 10 11 12 13`: “mean fluorescence intensity” 214 a.u.
`2'F-ANA at 1 2 3 4 5 6 8 12 14` — result for “mean fluorescence intensity”: 47.4 a.u.

Block 4 — technique: protein-binding microarray; molecule type: double-stranded DNA, one strand shown; matrix: in vitro; concentration: 250 nM; notes: 60-bp whole probe; together with: salmon DNA 0.4 mg/ml; relative to: random background probes; direction: higher = stronger binding; all sequences stand within: GCCTAGCAC … GTCTTGATTCGCTTGACGCTGCTG
Target: Interferon regulatory factor 5, full length, phosphomimetic (IRF5, Homo sapiens, UniProt Q13568-2, residues 1-514, K96S/S451D/S453D/S456D/S462D)
For `CACGGTATCGGGACTGGGGACGTGCTA`, the log fluorescence was 0.864 z-score.
For `TTAGATTTCGGGACTGGAGTAGTGCTA`, the log fluorescence was 2.57 z-score.
The log fluorescence of `TTAGGACTGGACTACCGGTTAGTGCTA` is reported as -0.341 z-score.
For `TAGCTTCCATTTTCTGAACGTGTGCTA`, the log fluorescence was 1.28 z-score.
For `TCAGATTTCAGTTTCTCACTGTGCTAG`, the log fluorescence was 2.45 z-score.
`AGAGTTCCAGACAGCTCCCTGTGCTAG` has a log fluorescence of -0.402 z-score.
`TCACTTGTCCCTCCGGGACTGTGCTAG` has a log fluorescence of -0.0978 z-score.
With `ATCCATTTTGGTTTTCATTAGTGCTAG` the log fluorescence was 2.1 z-score.
For `GGCGGACTGGACTTTCGGGACGTGCTA`, the log fluorescence was 4.29 z-score.
For `TGATTTTGGTCTTTCTGTTTGTGCTAG`, the log fluorescence was 3.88 z-score.
The log fluorescence of `GAATTTCCCACTTTCAGTTCGTGCTAG` is reported as 5.78 z-score.
The log fluorescence of `GACGGACTGGGATTCGGGACGTGCTAG` is reported as -0.392 z-score.
With `GACGGTTTCTGACTGGGGACGTGCTAG` the log fluorescence was 0.672 z-score.
For `CATGAACTGTTTCTTGAAAAGTGCTAG`, the log fluorescence was 0.569 z-score.
For `GACGATTTCCGTTCCGAGACGTGCTAG`, the log fluorescence was 0.559 z-score.
`AACGGACTGCTTTTCCTGACGTGCTAG` gave a log fluorescence of -0.128 z-score.
`TTAGGTATCGACTTTCGCTTAGTGCTA` has a log fluorescence of 7.89 z-score.
